# Published values of several laboratories.
# Numbered parts are unrelated; each lists some results of a single study.

# Set 1 — method: RNA Bind-n-Seq; molecule type: RNA; matrix: in vitro; concentration: not given; baseline: input RNA pool; direction: higher = stronger binding
# Target: RING finger protein unkempt homolog, zinc fingers 1-6, GST-SBP tag (UNK, Homo sapiens, UniProt Q9C0B0, residues 30-357)
# Setting: RNA with constant flanks, human and mouse sites, ends assumed
# Target sequence (chain): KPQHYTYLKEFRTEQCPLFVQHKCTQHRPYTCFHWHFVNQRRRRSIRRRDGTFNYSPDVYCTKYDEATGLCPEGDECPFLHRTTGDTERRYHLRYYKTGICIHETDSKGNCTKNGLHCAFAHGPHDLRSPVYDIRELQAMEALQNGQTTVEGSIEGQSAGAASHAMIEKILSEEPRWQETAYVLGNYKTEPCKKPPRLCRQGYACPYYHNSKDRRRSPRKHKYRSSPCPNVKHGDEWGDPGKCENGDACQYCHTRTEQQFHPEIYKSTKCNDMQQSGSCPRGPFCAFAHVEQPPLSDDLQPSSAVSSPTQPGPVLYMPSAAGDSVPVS
Strand,bound/input enrichment [ratio]
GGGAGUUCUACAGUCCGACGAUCGACCUGAAGAAGCUCCGAGUUAAAGAGCUGAAGAAGAUUCUGGAUGACUGGGGGGAGACAUGCAAAGGCUGUGCAGAAAAGUCUGACUACAUCCGGAAGAUAAAUGAACUGAUGCCUAAACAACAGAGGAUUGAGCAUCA,0.214
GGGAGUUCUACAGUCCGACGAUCCACCACACUUUAAAGGCAGAUGCUCUAUUAGGAAAAGCAACAGUGGACUUGAAACAAGUGCUGUUAACACACAACAGAAAAUUAGAAAAAGUGAAAGAACAAUUAAAACUUUCCUUGGAACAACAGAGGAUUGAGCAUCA,1.94
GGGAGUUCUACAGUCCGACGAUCCUACCCCCAUUGCAGGAUUGGACAAUACCAUCUUAUUCUUGAGAGGCUGUAAGGAGCUUGGCCUUAAAGAAUCUCAACUCUUUGACCCGAGUGACCUCCAGGAUACCUCCAACAGGGUCACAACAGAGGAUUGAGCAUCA,0.116
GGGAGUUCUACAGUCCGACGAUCAAAGAUCCUAAUAUGAAAGGUGCAAUGCUUACCAACACUGGAAAAUAUGCAAUACCAACUAUAGAUGCAGAAGCAUAUGCAAUUGGGAAGAAAGAGAAACCUCCCUUCUUACCAGAGGAGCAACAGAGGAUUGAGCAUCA,0.264
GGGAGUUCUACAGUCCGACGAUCGGAGAUAUUCCAGAUCUUUCACAGGCCCCCAGCAGUCUUCUUGAUGCUUUAGAACAACAUUUAGCUUCCUUGGAAGGAAAGAAAAUCAAAGAUUCCACAGCUGCAAGCAGGGCUACAACACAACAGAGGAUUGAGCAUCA,0.268
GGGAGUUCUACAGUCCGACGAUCGAUGUGGAAAUAAUCUUUAAUGAGCGCGGCUCCAAGGGAUUCGGGUUCGUAACUUUCGAGAAUAGUGCUGAUGCAGACAGGGCCAGGGAGAAAUUGCACGGCACCGUGGUAGAGGGCCGUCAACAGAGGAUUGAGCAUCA,0.999
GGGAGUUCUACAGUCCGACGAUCCUGAUAAGUCCAGAUGGACUGAUGGACAUCUGUUGAUCUAUGUGUAACUUCUAAAAUUGGUAUCGUAUCCACAGAGUGUAUAAUUUAAACUAACCACAGAGCUUUACAUCUUCAUUUCGACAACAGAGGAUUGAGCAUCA,0.123
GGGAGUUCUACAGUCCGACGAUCGAUCUGUACCACAAAGGGCUACUCAAGUUCUCUCUGGAUGCCCUUUCUCUGAGGGACACUCUGGUCAUGUUGGUUGUUGAUAUGUCAAAGCCUUGGACUGCUUUGGAUUCCUUACAGAAACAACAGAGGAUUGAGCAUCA,0.0571
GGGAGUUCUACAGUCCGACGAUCGACGGACAUUUGAUAAACACAGGACAAGCUAUGGAUAGUUCAGACAAUUCAGAAAGGACUGGUGAGCGGGUUUCUCCUGAUAUUAAUGAAACUAAUACUGAUACAGAUUUAUUUGUGCCACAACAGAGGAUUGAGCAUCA,0.429
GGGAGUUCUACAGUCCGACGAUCGAGAAGCGAGAAAAGAUGAAACGGACCCUUUUAAAAGAUUGGAAGACCCGUUUGAGCUACUUCUUACAAAAUUCCUCUACUCCUGGGAAGCCCAAAACCGGCAAAAAAAGCAAACAGCAACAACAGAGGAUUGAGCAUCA,0.286
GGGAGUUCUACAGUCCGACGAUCGUAUCGGGGCGGGGUGUGUGUGUGCAUGGAAGAUGCCUGGGCUGUCUUUGCUAUAUGUAAAUAGAGCCAUUGGAUCUUUAUUUUUGAUUAAUUUGUUCUGAUUUUUUGGUUUGUUUUUUACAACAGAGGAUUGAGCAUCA,0.832

# Set 2 — method: universal PBM; molecule type: double-stranded DNA, one strand shown; matrix: in vitro; concentration: 600 nM; direction: higher = stronger binding
# Target: Sal-like protein 4, full length isoform A (SALL4, Homo sapiens, UniProt Q9UJQ4, residues 1-1053)
# UniProt Q9UJQ4, sequence (whole entry, looked up): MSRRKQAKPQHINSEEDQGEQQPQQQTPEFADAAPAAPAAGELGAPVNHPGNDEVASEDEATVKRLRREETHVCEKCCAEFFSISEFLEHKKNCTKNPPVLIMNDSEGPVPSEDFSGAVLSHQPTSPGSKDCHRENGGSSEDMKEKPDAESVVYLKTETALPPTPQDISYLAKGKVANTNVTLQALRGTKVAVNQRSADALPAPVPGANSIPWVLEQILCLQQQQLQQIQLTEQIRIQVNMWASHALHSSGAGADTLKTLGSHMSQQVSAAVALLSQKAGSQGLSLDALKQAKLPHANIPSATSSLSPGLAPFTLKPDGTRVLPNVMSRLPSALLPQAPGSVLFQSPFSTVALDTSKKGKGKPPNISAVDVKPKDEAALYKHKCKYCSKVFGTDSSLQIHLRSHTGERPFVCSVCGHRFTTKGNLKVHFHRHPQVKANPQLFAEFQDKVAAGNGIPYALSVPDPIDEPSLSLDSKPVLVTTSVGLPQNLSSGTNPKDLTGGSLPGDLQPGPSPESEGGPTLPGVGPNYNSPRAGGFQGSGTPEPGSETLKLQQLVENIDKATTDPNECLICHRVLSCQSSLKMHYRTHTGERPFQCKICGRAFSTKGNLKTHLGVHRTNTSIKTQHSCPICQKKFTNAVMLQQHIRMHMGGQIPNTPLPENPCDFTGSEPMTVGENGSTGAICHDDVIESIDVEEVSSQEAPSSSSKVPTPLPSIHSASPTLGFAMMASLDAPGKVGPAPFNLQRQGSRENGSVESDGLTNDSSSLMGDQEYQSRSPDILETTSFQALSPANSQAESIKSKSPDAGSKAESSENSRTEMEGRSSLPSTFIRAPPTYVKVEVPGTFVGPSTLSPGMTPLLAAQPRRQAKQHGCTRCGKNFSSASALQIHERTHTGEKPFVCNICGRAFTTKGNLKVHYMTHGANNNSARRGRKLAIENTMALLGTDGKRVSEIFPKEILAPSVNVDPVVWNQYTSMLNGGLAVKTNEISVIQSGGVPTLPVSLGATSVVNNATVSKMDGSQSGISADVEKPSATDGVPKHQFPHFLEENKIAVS
# Setting: 8-mer, flanks averaged, mean of replicates
Strand,E-score
AGCTTAAA,0.087
CTGCTGGA,-0.0785
ACCATTAT,0.0792
AACCGGAC,-0.148
CAATGTAA,0.276
AATACCAC,0.142
TACCCACA,0.0121
CGCAGCTC,-0.2
GACGGCGA,-0.245
CCGAGTGA,-0.118
TGTGCAAA,0.142
CAGCCCTG,-0.379
ATTGCAAG,0.15
ACGGAAAC,-0.208
CTCCGGAG,-0.32
CTGATCAA,-0.0313
GCTAGTGA,-0.0665

# Set 3 — method: protein binding microarray; molecule type: double-stranded DNA, one strand shown; matrix: in vitro; concentration: not given; baseline: not given; direction: higher = stronger binding
# Target: Histone acetyltransferase KAT6A, winged helix 2, GST fusion (KAT6A, Homo sapiens, UniProt Q92794, residues 85-181)
# Setting: 8-mer, flanks averaged, mean of 2 arrays, mostly near background
# Residues (chain): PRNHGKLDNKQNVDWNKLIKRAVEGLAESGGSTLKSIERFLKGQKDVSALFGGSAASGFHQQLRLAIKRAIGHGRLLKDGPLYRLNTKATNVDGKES
Strand,E-score
CACCTTTC,-0.167
CCCTGCAG,0.0644
AACGTGGT,-0.255
GAAGGGTC,-0.13
GTCACGCA,-0.0874
AACGACAG,-0.0393
ATACAGGA,-0.183
ATTGCCTA,-0.0478
CACAAGTC,-0.205
AATAAGTA,-0.119
CACATCTG,-0.142
GCTGCAGC,-0.0767
CCGTCTAG,0.0175
AGAGGAGA,-0.127
AAGACGAG,-0.0514
CTAGCGTC,-0.101
ATCGGCGA,0.1
GCGCAGTA,-0.0287
CAGTCCCG,-0.00636

# Set 4 — method: aptamer microarray, sandwich; molecule type: DNA with 2'F-ANA; matrix: in vitro; concentration: 200 nM; with: Cy3 exosite-II aptamer, 400 nM; direction: higher = stronger binding; strand: GGTTGGTGTGGTTGG
# Target: Prothrombin, mature alpha-thrombin (F2, Homo sapiens, UniProt P00734)
# Setting: whole 15-mer aptamer, many near background
Modification,mean fluorescence intensity
2'F-ANA at 2 3 6 7 10 11 12 13 14,242 a.u.
2'F-ANA at 1 2 3 4 5 7 9 10 11 12 13 15,51.7 a.u.
2'F-ANA at 1 4 6 7 10 12 13 14 15,48.8 a.u.
2'F-ANA at 1 3 5 6 8 11 13 14 15,51.2 a.u.
2'F-ANA at 1 2 4 6 9 10 12,58.3 a.u.
2'F-ANA at 1 2 4 11 13 14,59.5 a.u.
2'F-ANA at 1 2 3 5 9 10 11,45.7 a.u.
2'F-ANA at 6 7 10 11 12 14 15,107 a.u.
2'F-ANA at 2 3 5 11 12 13 15,121 a.u.
2'F-ANA at 2 3 5 7 10,56.3 a.u.
2'F-ANA at 2 3 6 8 13,666 a.u.
2'F-ANA at 1 6 8 12 15,404 a.u.
2'F-ANA at 1 9 10 12 13 14,46.5 a.u.
2'F-ANA at 1 2 5 9 10 11 12 13,57.4 a.u.
2'F-ANA at 2 3 4 6 7 8 9 11 12 14 15,257 a.u.
2'F-ANA at 2 3 6 7 8 9 13 14,321 a.u.
2'F-ANA at 1 4 7 9 10 11 12 14,61.5 a.u.
2'F-ANA at 2 3 4 5 6 8 9 11 13 14,50.9 a.u.
2'F-ANA at 3 4 5 6 7 8 11 12,200 a.u.

# Set 5 — method: RNA Bind-n-Seq; molecule type: RNA; matrix: in vitro; concentration: 365 nM; baseline: no-protein control; direction: higher = stronger binding
# Target: RNA binding protein fox-1 homolog 2, RRM domain, GST-SBP tag (RBFOX2, Homo sapiens, UniProt O43251-10, residues 100-194)
# Setting: natural RNA segment, single round, ends assumed
# Residues (chain): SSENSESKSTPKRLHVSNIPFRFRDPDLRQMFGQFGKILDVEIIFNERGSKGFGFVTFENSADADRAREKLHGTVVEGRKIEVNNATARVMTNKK
Strand,RBNS enrichment (R)
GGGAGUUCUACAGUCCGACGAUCCUUGUGCGGAUGUCAGGGGACAUUACUGUUGCUAAUAAAGUCCAAAGUGGCCAAUGCCUUUCCCAAAGCAGUGUUGUUAUUGAAUCUGGCCCCUUCCCGAGGGGAUAAAAUGGAAUUCUCGGGUGCCAA,0.588
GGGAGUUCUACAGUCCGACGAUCAUCACACAAGAAGAGACAACUUCACUUUGAACAUUAGAUCCACUCAAGAUUAGUCCACGAAUGAUCCCCACCUCUUCUGCACAGGAUCCGUGGUCGUGACCCCACUGGCUUGGAAUUCUCGGGUGCCAA,0.276
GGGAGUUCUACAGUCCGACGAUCUCCUGGACAAGUGUGAUCCCCCUAUAAACGGCUCUCAGGAGGUUAGUGAGUAGGAGAUUCUGCCUUGUUCUGAUGAGCCUGUGCAGGGGCUCCAGGGGAGCAUGCUGUCCUGGAAUUCUCGGGUGCCAA,0.942
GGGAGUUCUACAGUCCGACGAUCGAACCUGCCUUUCUGUGAAUGUGUCUGACUUAGAAUCACACUUUAUAAAUUAAUCCAGGUUGUGUUAAUACAGCAGUUUUCCUAGGCCCAAAAGGUUACUCUCAUAACAUUGGAAUUCUCGGGUGCCAA,0.751
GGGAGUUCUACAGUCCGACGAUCCAUGAAUAAAGGUAUGUAUGUACGAAUGUGUAUAUAUUAUAUAUAUGACAUCUAUUUUGGAAAAUGUUUGCCCUGCUGUACCUCAUUUUUAGGAGGUGUGCAUGGAUGCAUGGAAUUCUCGGGUGCCAA,1.12
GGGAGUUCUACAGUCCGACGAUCUUUAAAACAAACACAUAACAAUCUUCAGUAAAGUUAUUUGAACCUGUGGUUGACAAUUCUGUAUUGACUAAAGGCAAUAUUGUCACCUGUCUCAUUAAAAAUUAGUUUCCUGGAAUUCUCGGGUGCCAA,0.433
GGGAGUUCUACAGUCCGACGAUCCAUCCGAUUAGCCCAACUCUGUCUCCCAGGCCCCCUGCUGGGAAACCCAUACCCAGCAUCCCUCCCCUGCCCUGGCCCUCGGCUGUGUAUUUAUAGAUGGAAAUAUACUUUGGAAUUCUCGGGUGCCAA,0.626
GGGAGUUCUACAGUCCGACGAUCUCCAAAGACCCCACCCCUCUGCUGGUCCUGCCAACGUGUUGGUGCUAUAAGCUGCUUCAGAUAUAAAAUUGGUUUAUCUAUAAUGUUUGUUCAUUUAAUAGCUUCUAAAAUGGAAUUCUCGGGUGCCAA,0.536
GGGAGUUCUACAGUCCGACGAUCAGGUGUUAAAGGCCCAGGUGUGCUGUGCCAAAGAGCUCAGCAGAGGCUCACGUGGCCCAGGCUGGUGCGCCCGCUGUCUCGGUAAGGGGCGGGUUGGUGUGUUUUCCCCUUGGAAUUCUCGGGUGCCAA,0.251
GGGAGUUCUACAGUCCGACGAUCCAUUUCUACCUCCAAAGUCAUCAGAGCCUGCUUGUCCACAUCUGGUCCAGGUGGGAGUACAAGGAAGGCUGCUUCUACACCCAUGAGCACAAAUACGUCUGUGUGGGACAUGGAAUUCUCGGGUGCCAA,0.304
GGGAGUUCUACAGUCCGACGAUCUUACUAAUUUGAUGUAUGGUUUCACAGUCUAGCAUACUGUCCUUUGACAUCUGCCUUUAAGACUUGGCUGAGUGUCUCAUUAGUUUAUCAUCACAGAUACGCAGUGUUAUUGGAAUUCUCGGGUGCCAA,0.459
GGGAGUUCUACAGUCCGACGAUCGAUAUGCUUACUAAAUCUUCAGCAUAGAAGGAAGUGUGUUUGCCUAAAACAAUCUAAAACAAUUCCCUUCUUUUUCAUCCCAGACCAAUGGCAUUAUUAGGUCUUAAAGUUGGAAUUCUCGGGUGCCAA,0.38

# Some of these lines once more (set 3):
Strand,E-score
AACGTGGT,-0.255
GAAGGGTC,-0.13
GTCACGCA,-0.0874
AACGACAG,-0.0393
ATACAGGA,-0.183
ATTGCCTA,-0.0478
CACAAGTC,-0.205
AATAAGTA,-0.119
